Results collected from several papers.
± marks the error that the study gave.
Tumor necrosis factor receptor superfamily member 9/Nectin-4: Tumor necrosis factor receptor superfamily member 9/Nectin-4 (Homo sapiens, UniProt Q07011+Q96NY8)
UniProt Q07011, sequence (whole entry, looked up): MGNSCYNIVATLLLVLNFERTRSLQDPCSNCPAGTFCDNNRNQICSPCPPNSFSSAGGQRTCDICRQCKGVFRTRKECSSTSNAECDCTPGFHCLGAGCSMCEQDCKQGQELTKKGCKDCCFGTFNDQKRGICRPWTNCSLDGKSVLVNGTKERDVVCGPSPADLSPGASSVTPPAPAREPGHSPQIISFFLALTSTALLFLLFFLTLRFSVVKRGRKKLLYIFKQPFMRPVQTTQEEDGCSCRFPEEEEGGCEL
UniProt Q96NY8, sequence (whole entry, looked up): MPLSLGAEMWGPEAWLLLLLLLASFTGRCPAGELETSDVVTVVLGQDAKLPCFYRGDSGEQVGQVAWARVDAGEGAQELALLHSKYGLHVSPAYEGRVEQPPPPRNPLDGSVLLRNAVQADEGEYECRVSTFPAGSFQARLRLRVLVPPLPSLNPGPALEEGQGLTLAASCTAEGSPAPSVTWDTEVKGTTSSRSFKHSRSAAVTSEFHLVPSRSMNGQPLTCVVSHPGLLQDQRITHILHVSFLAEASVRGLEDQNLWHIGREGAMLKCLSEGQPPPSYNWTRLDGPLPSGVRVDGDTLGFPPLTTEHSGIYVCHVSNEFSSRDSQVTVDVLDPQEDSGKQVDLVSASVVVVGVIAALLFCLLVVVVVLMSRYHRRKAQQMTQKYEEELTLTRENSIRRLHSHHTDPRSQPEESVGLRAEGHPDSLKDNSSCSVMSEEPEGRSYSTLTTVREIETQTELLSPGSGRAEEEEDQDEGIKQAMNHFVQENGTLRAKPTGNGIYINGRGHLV
CA9: Carbonic anhydrase 9 (CA9, Homo sapiens, UniProt Q16790)
UniProt P42260, sequence (whole entry, looked up): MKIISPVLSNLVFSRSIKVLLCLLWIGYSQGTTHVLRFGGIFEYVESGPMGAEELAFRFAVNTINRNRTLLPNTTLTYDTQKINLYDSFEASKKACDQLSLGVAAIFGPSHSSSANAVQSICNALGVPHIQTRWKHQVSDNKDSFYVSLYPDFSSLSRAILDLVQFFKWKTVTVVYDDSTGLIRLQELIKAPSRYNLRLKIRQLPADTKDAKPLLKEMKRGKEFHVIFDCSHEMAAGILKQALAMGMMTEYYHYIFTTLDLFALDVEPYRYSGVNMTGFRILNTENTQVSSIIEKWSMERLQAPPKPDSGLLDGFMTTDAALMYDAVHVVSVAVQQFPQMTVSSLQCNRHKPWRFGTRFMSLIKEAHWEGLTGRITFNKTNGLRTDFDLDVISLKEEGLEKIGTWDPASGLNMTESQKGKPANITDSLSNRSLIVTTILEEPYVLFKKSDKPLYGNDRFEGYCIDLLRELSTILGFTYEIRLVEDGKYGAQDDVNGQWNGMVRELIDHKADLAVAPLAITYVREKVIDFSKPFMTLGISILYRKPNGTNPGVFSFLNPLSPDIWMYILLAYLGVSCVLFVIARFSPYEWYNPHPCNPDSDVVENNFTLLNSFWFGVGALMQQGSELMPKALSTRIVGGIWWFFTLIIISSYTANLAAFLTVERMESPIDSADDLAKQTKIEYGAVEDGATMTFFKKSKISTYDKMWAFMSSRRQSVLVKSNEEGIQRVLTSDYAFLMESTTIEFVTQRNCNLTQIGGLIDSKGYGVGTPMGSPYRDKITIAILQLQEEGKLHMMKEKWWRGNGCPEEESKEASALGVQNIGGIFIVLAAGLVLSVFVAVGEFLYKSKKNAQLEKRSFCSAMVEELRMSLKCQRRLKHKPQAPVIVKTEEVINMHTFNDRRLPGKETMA
UniProt P19490, sequence (whole entry, looked up): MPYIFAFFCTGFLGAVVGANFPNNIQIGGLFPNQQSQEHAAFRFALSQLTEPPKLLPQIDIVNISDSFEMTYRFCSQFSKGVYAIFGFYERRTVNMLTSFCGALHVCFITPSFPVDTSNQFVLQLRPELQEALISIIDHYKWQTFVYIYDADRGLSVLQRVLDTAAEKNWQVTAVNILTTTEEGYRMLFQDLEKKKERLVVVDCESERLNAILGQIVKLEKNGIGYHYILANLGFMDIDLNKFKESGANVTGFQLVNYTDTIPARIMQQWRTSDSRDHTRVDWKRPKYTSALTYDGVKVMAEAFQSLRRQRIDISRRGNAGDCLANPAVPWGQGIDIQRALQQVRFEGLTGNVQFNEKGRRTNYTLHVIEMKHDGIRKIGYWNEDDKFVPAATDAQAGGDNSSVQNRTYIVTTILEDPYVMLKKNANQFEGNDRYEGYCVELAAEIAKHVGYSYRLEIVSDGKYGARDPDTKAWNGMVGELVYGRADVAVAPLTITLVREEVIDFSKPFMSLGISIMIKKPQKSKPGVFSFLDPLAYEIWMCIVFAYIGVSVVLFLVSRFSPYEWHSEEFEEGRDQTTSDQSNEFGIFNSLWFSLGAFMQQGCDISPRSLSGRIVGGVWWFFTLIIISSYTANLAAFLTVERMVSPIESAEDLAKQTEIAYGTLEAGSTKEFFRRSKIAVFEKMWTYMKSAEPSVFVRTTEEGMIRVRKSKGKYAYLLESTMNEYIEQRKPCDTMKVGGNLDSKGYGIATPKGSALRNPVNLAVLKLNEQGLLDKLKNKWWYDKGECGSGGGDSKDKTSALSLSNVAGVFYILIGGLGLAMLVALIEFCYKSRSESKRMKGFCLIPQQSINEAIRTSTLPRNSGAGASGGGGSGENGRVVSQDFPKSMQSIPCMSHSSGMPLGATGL

| Structure (SMILES) | tested on | test | system | setting | scale | endpoint | value |
| --- | --- | --- | --- | --- | --- | --- | --- |
| CCCC[C@@H]1NC(=O)[C@H](Cc2ccc(O)cc2)NC(=O)[C@@H]2CCCN2C(=O)[C@H](CC(=O)O)NC(=O)[C@H](C)NC(=O)[C@H](Cc2ccccc2)NC(=O)[C@@H]2CSCCC(=O)N3CN(CN(C3)C(=O)CCSC[C@@H](C(=O)N[C@@H](C)C(N)=O)NC1=O)C(=O)CCSC[C@H](NC(C)=O)C(=O)N[C@@H](CC(C)(C)C)C(=O)N1CCC[C@H]1C(=O)N[C@@H](CCC(=O)O)C(=O)N[C@H](CCCCNC(=O)CCc1cn(CCOCCOCCOCCN(CCOCCOCCOCCn3cc(CCC(=O)NCCCC[C@H]4NC(=O)[C@H](CCC(=O)O)NC(=O)[C@@H]5CCCN5C(=O)[C@H](CC(C)(C)C)NC(=O)[C@@H](NC(C)=O)CSCCC(=O)N5CN6CN(C5)C(=O)CCSC[C@H](NC(=O)[C@H](Cc5ccc(O)cc5)NC(=O)[C@@H]5CCCN5C4=O)C(=O)N[C@@H](Cc4ccccc4)C(=O)N[C@@H](C)C(=O)N[C@@H](CC(=O)O)C(=O)N4CCC[C@H]4C(=O)N[C@@H](Cc4ccc(O)cc4)C(=O)N[C@@H](CCCC)C(=O)N[C@H](C(=O)N[C@@H](C)C(N)=O)CSCCC6=O)nn3)CCOCCOCCOCC(=O)NCCCNC(=O)Cn3cc(CCC(=O)NCCCNC(=O)COCCOCCOCCN(CCOCCOCCOCCn4cc(CCC(=O)NCCC(=O)N[C@H]5CSCCC(=O)N6CN7CN(C6)C(=O)CCSC[C@H](NC(=O)[C@@H](CC(=O)O)NC(=O)[C@H](Cc6cccc8ccccc68)NC(=O)[C@@H]6CCCN6C5=O)C(=O)N[C@@H](CCSC)C(=O)N[C@@H](CCCCNC(=N)N)C(=O)N[C@@H](CC(=O)O)C(=O)N[C@@H](Cc5c[nH]c6ccccc56)C(=O)N[C@@H](CO)C(=O)N[C@@H]([C@@H](C)O)C(=O)N5CCC[C@H]5C(=O)N5C[C@H](O)C[C@H]5C(=O)N[C@@H](Cc5c[nH]c6ccccc56)C(=O)N[C@H](C(N)=O)CSCCC7=O)nn4)CCOCCOCCOCCn4cc(CCC(=O)NCCC(=O)N[C@H]5CSCCC(=O)N6CN7CN(C6)C(=O)CCSC[C@H](NC(=O)[C@@H](CC(=O)O)NC(=O)[C@H](Cc6cccc8ccccc68)NC(=O)[C@@H]6CCCN6C5=O)C(=O)N[C@@H](CCSC)C(=O)N[C@@H](CCCCNC(=N)N)C(=O)N[C@@H](CC(=O)O)C(=O)N[C@@H](Cc5c[nH]c6ccccc56)C(=O)N[C@@H](CO)C(=O)N[C@@H]([C@@H](C)O)C(=O)N5CCC[C@H]5C(=O)N5C[C@H](O)C[C@H]5C(=O)N[C@@H](Cc5c[nH]c6ccccc56)C(=O)N[C@H](C(N)=O)CSCCC7=O)nn4)nn3)nn1)C(=O)N1CCC[C@H]1C(=O)N[C@@H](Cc1ccc(O)cc1)C(=O)N2 | Tumor necrosis factor receptor superfamily member 9/Nectin-4 | reporter gene, agonist | HT-1376 coculture with reporter cells | – | – | EC50 | 0.05 nM |
| Cc1cc(C)c2sc(NC(=O)c3cc4ccccc4o3)nc2n1 | Genome polyprotein, NS2B-NS3 protease (ZIKV, UniProt A0A024B7W1) | inhibitor | – | – | – | IC50 | 440 ± 110 nM |
| COc1cc(Nc2ncc(F)c(Nc3ccc4c(n3)NC(=O)C(C)(C)O4)n2)cc(OC)c1OC | AVPR2 (Homo sapiens, UniProt P30518) | – | – | – | – | IC50 | > 10000 nM |
| CCCC[C@@H]1NC(=O)[C@H](Cc2ccc(O)cc2)NC(=O)[C@@H]2CCCN2C(=O)[C@H](CC(N)=O)NC(=O)[C@H](C)NC(=O)[C@H](Cc2ccccc2)NC(=O)[C@@H]2CSCCC(=O)N3CN(CN(C3)C(=O)CCSC[C@H](NC(C)=O)C(=O)N[C@@H](CC(C)(C)C)C(=O)N3CCC[C@H]3C(=O)N[C@@H](CCC(=O)O)C(=O)N[C@H](CCCCNC(=O)CCc3cn(CCOCCOCCOCCOCCOCCC(=O)N[C@H]4CSCCC(=O)N5CN6CN(C5)C(=O)CCSC[C@H](NC(=O)[C@@H](CC(=O)O)NC(=O)[C@H](Cc5cccc7ccccc57)NC(=O)[C@@H]5CCCN5C4=O)C(=O)N[C@@H](CCSC)C(=O)N[C@@H](CCCCNC(=N)N)C(=O)N[C@@H](CC(=O)O)C(=O)N[C@@H](Cc4c[nH]c5ccccc45)C(=O)N[C@@H](CO)C(=O)N[C@@H]([C@@H](C)O)C(=O)N4CCC[C@H]4C(=O)N4C[C@H](O)C[C@H]4C(=O)N[C@@H](Cc4c[nH]c5ccccc45)C(=O)N[C@H](C(N)=O)CSCCC6=O)nn3)C(=O)N3CCC[C@H]3C(=O)N[C@@H](Cc3ccc(O)cc3)C(=O)N2)C(=O)CCSC[C@@H](C(N)=O)NC1=O | Tumor necrosis factor receptor superfamily member 9/Nectin-4 | reporter gene, agonist | HT-1376 coculture with reporter cells | – | – | EC50 | 26.9 nM |
| Cn1cc(CN2CCCC(COc3ccccc3C(=O)N3CCCCC3)C2)c2ccccc21 (stereo not drawn) | Vero-E6 | CellTiter-Glo ATP | – | 72 h, retest 8-point duplicates | reference: DMSO 0%, hyamine -100%, more negative, more toxic | maximum response | -11.2% |
| CC[C@H](C)[C@H](NC(=O)[C@H](Cc1ccccc1)NC(=O)[C@H](CCC(=O)O)NC(=O)[C@H](CCCNC(=N)N)NC(=O)[C@H](C)NC(=O)[C@H](C)NC(=O)[C@H](CCC(N)=O)NC(=O)[C@H](CCC(=O)O)NC(=O)[C@H](CCC(=O)O)NC(=O)[C@H](CC(C)C)NC(=O)[C@H](Cc1ccc(O)cc1)NC(=O)[C@H](CO)NC(=O)[C@H](CO)NC(=O)[C@@H](NC(=O)[C@H](CC(=O)O)NC(=O)[C@H](CO)NC(=O)[C@@H](NC(=O)[C@H](Cc1ccccc1)NC(=O)[C@@H](NC(=O)CNC(=O)[C@H](CCC(=O)O)NC(=O)[C@H](C)NC(=O)CCc1c[nH]cn1)[C@@H](C)O)[C@@H](C)O)C(C)C)C(=O)N[C@@H](C)C(=O)N[C@@H](Cc1c[nH]c2ccccc12)C(=O)N[C@@H](CC(C)C)C(=O)N[C@H](C(=O)N[C@@H](CCCNC(=N)N)C(=O)NCC(=O)N[C@@H](CCCNC(=N)N)C(=O)N[C@@H](CCCCNC(=O)COCCOCCNC(=O)COCCOCCNC(=O)CC[C@H](NC(=O)CCCCCCCCCCCCCCCCC(=O)O)C(=O)O)C(=O)NCC(=O)NCC(=O)N[C@@H](CO)C(=O)N[C@@H](CCCCNc1c(NCCCCCN(O)C(=O)CCC(=O)NCCCCCN(O)C(=O)CCC(=O)NCCCCCN(O)C(C)=O)c(=O)c1=O)C(=O)O)C(C)C [zirconium-89 labelled] | – | gamma counting | rat, stomach-duodenum | intravenous, 3 nmol/kg, 4 h | – | tissue uptake | 0.49 %ID/g |
| NC(CC1(C(=O)O)CC2OC(CO)C(O)C(N)C2O1)C(=O)O (stereo not drawn) | Gria1 (Rattus norvegicus, UniProt P19490) | [3H]AMPA displacement | HEK-293T/17 membranes | – | – | Ki | > 10000 nM |
| O=C(Nc1cccc(F)c1)Nc1ccc2c(c1)C=CCP(=O)(O)O2 | CA9 | – | – | – | – | Ki | 51.8 nM |
| COCC1OC2CC(CC(N)C(=O)O)(C(=O)O)OC2C(O)C1O (stereo not drawn) | Grik2 (Rattus norvegicus, UniProt P42260) | binding | HEK293T/17 membranes | with: [3H]kainate | – | Ki | 2430 nM |
| O=C(Nc1ccc2c(c1)C=CCP(=O)(O)O2)c1cccs1 | CA9 | – | – | – | – | Ki | 32.8 nM |
| CCCC[C@@H]1NC(=O)[C@H](Cc2ccc(O)cc2)NC(=O)[C@H](C)N(C)C(=O)[C@H](CC(=O)O)NC(=O)[C@H](C)NC(=O)[C@H](Cc2ccccc2)NC(=O)[C@@H]2CSCCC(=O)N3CN(CN(C3)C(=O)CCSC[C@H](NC(C)=O)C(=O)N[C@@H](CC(C)(C)C)C(=O)N3CCC[C@H]3C(=O)N[C@@H](CCC(=O)O)C(=O)N[C@H](CCCCNC(=O)CCc3cn(CCOCCOCCOCCOCCOCCC(=O)N[C@H]4CSCCC(=O)N5CN6CN(C5)C(=O)CCSC[C@H](NC(=O)[C@@H](CC(=O)O)NC(=O)[C@H](Cc5cccc7ccccc57)NC(=O)[C@@H]5CCCN5C4=O)C(=O)N[C@@H](CCSC)C(=O)N[C@@H](CCCCNC(=N)N)C(=O)N[C@@H](CC(=O)O)C(=O)N[C@@H](Cc4c[nH]c5ccccc45)C(=O)N[C@@H](CO)C(=O)N[C@@H]([C@@H](C)O)C(=O)N4CCC[C@H]4C(=O)N4C[C@H](O)C[C@H]4C(=O)N[C@@H](Cc4c[nH]c5ccccc45)C(=O)N[C@H](C(N)=O)CSCCC6=O)nn3)C(=O)N3CCC[C@H]3C(=O)N[C@@H](Cc3ccc(O)cc3)C(=O)N2)C(=O)CCSC[C@@H](C(N)=O)NC1=O | Tumor necrosis factor receptor superfamily member 9/Nectin-4 | reporter gene, agonist | HT-1376 coculture with reporter cells | – | – | EC50 | 6.48 nM |
| COc1ccccc1C(=O)NC1CCCN(Cc2cccc(-c3ccc(C)c(Cl)c3)c2)C1 (stereo not drawn) | Vero-E6 | CellTiter-Glo ATP | – | 72 h, first round 5-point | reference: DMSO 0%, hyamine -100%, more negative, more toxic | maximum response | -12.2% |
| C[C@H]1CN(c2n[nH]c3nc(N[C@H]4CC[C@H](NS(=O)(=O)CCC(F)(F)F)CC4)ncc23)CCO1 | UBR4 (Homo sapiens, UniProt Q5T4S7) | biochemical | – | – | – | IC50 | ≥ 20000 nM |
| O=C(Nc1cccc(Cl)c1)Nc1ccc2c(c1)C=CCP(=O)(O)O2 | CA9 | – | – | – | – | Ki | 52.9 nM |
| CC[C@H](C)[C@@H]1NC(=O)[C@@H]2CCCN2C(=O)[C@H](CC(C)C)NC(=O)[C@H](CC(C)C)NC(=O)CNC(=O)[C@@H](NC(=O)[C@@H](NC(=O)[C@H](CC(=O)O)NC(=O)CNC(=O)[C@@H](NC(=O)[C@H](C)NC(=O)CNC(=O)[C@H](CCCCN)NC(=O)[C@H](CC(C)C)NC(=O)[C@H](CC(C)C)NC(=O)[C@H](CCCCN)NC(=O)CNC(=O)[C@@H](NC(=O)[C@@H](N)CC(C)C)C(C)C)C(C)C)C(C)C)CSSC[C@@H](C(=O)O)NC1=O | – | RNA-seq, refers to: S100a11 mRNA | mouse traumatic brain injury, frontal cortex and hippocampus | dose not given | reference: TBI plus compound vs TBI | log2 fold change | -2.24 |

For quick reference, copied from above:
| Structure (SMILES) | tested on | test | system | setting | scale | endpoint | value |
| --- | --- | --- | --- | --- | --- | --- | --- |
| Cn1cc(CN2CCCC(COc3ccccc3C(=O)N3CCCCC3)C2)c2ccccc21 (stereo not drawn) | Vero-E6 | CellTiter-Glo ATP | – | 72 h, retest 8-point duplicates | reference: DMSO 0%, hyamine -100%, more negative, more toxic | maximum response | -11.2% |
